Assay results collected from several papers.
Every numbered part comes from another study and shows a few of its results, in no order.

Sample 1 — method: universal PBM; molecule type: double-stranded DNA, one strand shown; matrix: in vitro; concentration: 600 nM; reading: higher = stronger binding; quantity: E-score
Target: Sal-like protein 4, full length isoform A (SALL4, Homo sapiens, UniProt Q9UJQ4, residues 1-1053)
Chain of UniProt Q9UJQ4 (whole entry, looked up): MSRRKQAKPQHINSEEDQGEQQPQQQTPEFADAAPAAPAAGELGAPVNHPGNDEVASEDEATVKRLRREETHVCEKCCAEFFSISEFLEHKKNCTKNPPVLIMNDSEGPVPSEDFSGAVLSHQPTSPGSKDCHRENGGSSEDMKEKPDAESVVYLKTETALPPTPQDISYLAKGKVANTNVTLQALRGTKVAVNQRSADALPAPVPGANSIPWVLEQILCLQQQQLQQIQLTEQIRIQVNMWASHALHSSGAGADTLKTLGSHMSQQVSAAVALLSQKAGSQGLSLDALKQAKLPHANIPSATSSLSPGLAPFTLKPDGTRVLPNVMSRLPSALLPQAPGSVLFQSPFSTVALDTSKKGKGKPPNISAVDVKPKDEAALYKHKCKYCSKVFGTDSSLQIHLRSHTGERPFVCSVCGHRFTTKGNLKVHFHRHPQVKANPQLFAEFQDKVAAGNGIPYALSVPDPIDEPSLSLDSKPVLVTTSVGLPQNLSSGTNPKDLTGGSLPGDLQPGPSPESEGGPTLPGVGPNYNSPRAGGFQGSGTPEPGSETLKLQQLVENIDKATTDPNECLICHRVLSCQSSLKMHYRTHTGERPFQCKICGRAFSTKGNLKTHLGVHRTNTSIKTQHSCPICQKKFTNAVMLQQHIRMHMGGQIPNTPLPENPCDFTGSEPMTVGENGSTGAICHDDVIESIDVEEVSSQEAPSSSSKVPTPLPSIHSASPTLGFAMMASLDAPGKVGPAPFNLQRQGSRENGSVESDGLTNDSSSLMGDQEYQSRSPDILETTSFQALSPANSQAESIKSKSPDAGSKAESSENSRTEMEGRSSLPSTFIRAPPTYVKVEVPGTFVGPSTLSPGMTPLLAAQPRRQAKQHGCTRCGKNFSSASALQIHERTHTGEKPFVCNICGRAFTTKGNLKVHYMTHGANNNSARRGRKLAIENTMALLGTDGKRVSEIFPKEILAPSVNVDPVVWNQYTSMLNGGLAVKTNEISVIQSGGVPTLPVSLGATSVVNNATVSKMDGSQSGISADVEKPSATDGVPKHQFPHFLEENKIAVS
Setting: 8-mer, flanks averaged, mean of replicates
GAAACTTC: -0.0417
CAAACGAA: 0.102
AATGGACG: 0.134
GTCATGCA: 0.0607
ACTCCTGA: -0.0674

Sample 2 — method: protein-binding microarray; molecule type: double-stranded DNA, one strand shown; matrix: in vitro; concentration: 2200 nM top; setting: 60-bp whole probe; added: salmon DNA 0.4 mg/ml; reference: random background probes; reading: higher = stronger binding; quantity: fitted relative affinity; constant ends, left off below: GCCTAGCAC … GTCTTGATTCGCTTGACGCTGCTG
Target: Interferon regulatory factor 7, full length, phosphomimetic (IRF7, Homo sapiens, UniProt Q92985, residues 1-503, S471D/S472D/S475D/S476D/S477D/S483D/S484D/S487D)
Chain of UniProt Q92985 (whole entry, unmodified, looked up): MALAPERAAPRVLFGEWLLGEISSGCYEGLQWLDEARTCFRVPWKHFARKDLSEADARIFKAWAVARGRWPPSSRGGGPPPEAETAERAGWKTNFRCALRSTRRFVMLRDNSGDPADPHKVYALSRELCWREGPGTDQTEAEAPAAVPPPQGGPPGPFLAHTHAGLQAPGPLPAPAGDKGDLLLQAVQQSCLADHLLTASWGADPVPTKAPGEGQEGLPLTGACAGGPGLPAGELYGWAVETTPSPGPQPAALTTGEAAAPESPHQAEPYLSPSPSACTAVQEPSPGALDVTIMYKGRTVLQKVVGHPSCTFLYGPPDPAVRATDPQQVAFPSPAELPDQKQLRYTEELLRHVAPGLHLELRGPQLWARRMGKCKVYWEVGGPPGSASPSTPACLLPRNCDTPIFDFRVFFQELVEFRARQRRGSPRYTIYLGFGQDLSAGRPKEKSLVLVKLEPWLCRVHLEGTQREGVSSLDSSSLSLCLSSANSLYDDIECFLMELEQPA
GACGAAATGAGTATCGAGACGTGCTAG: -0.0427 z-score
ATATATATATTATATATTTATGTGCTA: 0.375 z-score
ACTAGTTTCCATTTTCAGAAGTGCTAG: 6.38 z-score
TACGGTATCGGGTATCGGGACGTGCTA: 0.164 z-score
TCAAAAATGATTTTTTTACTGTGCTAG: -0.179 z-score
TTAGTTTCCAGTTTCGATTAGTGCTAG: 10 z-score
GACGATTTCGGGATTCGAGACGTGCTA: 2.43 z-score
TTAGGTTTCGGTCTCGGTAAGTGCTAG: 6.55 z-score

Sample 3 — method: RNAcompete; molecule type: RNA; matrix: in vitro; concentration: 20 nM; setting: 7-mer, probes averaged, single round; reference: mean of 7-mers; reading: higher = stronger binding; quantity: 7-mer Z-score
Target: PABPC1L2, full length, GST fusion (mouse, UniProt A0ABA7IW68)
CUGUCUC: -0.32
UGCAAGA: 0.017
GAGCGAC: 0.104
UCACGCG: -0.269
AAGCUUG: 0.227
CCUUCCC: -0.507

Single results of other studies
PhoQ, residues 284 288 289 292 302 303 TYGVAM — fold induction (PhoP, residues 12 14 15 18 19 SEGLL (Escherichia coli, UniProt P23836); Sort-seq, measured: YFP reporter; E. coli; PhoQ-PhoP variant library, added: 10 µM Mg2+; reference: high Mg2+ state, higher = stronger signaling): 12.7

Some of these lines once more (sample 2):
TCAAAAATGATTTTTTTACTGTGCTAG: -0.179 z-score
TTAGTTTCCAGTTTCGATTAGTGCTAG: 10 z-score
GACGATTTCGGGATTCGAGACGTGCTA: 2.43 z-score
